{"data": "Published values pooled from the literature", "note": "A part holds a random share of what one study measured."}
{"data": "Study 1", "target": "Centromere-binding protein 1, full length, His-tagged (CBF1, Saccharomyces cerevisiae, UniProt P17106, residues 1-351)", "method": "competition protein-binding microarray", "form": "double-stranded DNA, one strand shown", "sample": "in vitro", "tested at": "2 µM", "notes": "whole 60-bp probe, lowest competitor level", "together with": "Pho4 competitor, 0.05 µM", "reading": "higher = stronger binding", "shared flanks, not repeated": "… GTCTTGATTCGCTTGACGCTGCTG", "sequence of UniProt P17106 (whole entry, looked up)": "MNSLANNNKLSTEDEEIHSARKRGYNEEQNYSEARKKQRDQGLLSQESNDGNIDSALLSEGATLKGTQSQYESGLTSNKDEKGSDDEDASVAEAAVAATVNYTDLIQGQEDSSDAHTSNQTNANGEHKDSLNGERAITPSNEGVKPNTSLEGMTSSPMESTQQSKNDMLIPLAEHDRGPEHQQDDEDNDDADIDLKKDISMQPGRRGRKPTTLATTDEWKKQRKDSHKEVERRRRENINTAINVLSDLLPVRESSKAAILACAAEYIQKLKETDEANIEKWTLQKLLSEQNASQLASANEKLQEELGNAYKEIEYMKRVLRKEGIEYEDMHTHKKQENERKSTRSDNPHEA"}
{"Strand": "TTCTGCATCCAATATCACCTGACGTTCATCTTTATG", "fluorescence intensity": "883 a.u."}
{"Strand": "TGCGCAACAACTTTTCACGTGCTTTTATGTCTAGAA", "fluorescence intensity": "1260 a.u."}
{"Strand": "GTCTTGTCTCATTTTCACGTGCTATTCCCCACTTCA", "fluorescence intensity": "1020 a.u."}
{"Strand": "AAAGCGGTAATTTGCGGAGTGGGTGCAGATATCTAT", "fluorescence intensity": "73.8 a.u."}
{"Strand": "GGCAAAAGCTTACTTTCCGTGCCGAAGGTGTTGTTA", "fluorescence intensity": "71.8 a.u."}
{"Strand": "ACTAATGAATTGGTCCACGTTTAGCTTACTTCCCGA", "fluorescence intensity": "86.8 a.u."}
{"data": "Study 2", "target": "Interferon regulatory factor 7, full length, phosphomimetic (IRF7, Homo sapiens, UniProt Q92985, residues 1-503, S101K/S471D/S472D/S475D/S476D/S477D/S483D/S484D/S487D)", "method": "protein-binding microarray", "form": "double-stranded DNA, one strand shown", "sample": "in vitro", "tested at": "250 nM", "notes": "60-bp whole probe", "together with": "salmon DNA 0.4 mg/ml", "reference": "random background probes", "reading": "higher = stronger binding", "sequence of UniProt Q92985 (whole entry, unmodified, looked up)": "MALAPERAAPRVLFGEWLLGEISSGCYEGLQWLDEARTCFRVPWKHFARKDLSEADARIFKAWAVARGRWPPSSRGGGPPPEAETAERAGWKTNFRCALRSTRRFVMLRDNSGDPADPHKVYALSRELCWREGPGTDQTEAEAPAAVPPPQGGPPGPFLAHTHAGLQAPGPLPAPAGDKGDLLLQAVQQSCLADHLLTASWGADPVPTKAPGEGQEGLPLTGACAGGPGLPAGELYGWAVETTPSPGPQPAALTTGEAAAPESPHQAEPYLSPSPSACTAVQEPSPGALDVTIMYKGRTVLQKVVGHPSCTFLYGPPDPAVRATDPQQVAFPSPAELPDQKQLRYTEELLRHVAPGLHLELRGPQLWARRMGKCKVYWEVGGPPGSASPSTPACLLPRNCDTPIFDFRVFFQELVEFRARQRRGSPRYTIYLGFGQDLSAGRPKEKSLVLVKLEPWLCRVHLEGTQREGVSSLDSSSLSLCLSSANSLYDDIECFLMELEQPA"}
{"Strand": "GCCTAGCACGACGGTATCCGTTTCGGGACGTGCTAGGTCTTGATTCGCTTGACGCTGCTG", "log fluorescence [z-score]": 1.78}
{"Strand": "GCCTAGCACGACGGTATCCTTTTACTGACGTGCTAGGTCTTGATTCGCTTGACGCTGCTG", "log fluorescence [z-score]": 1.33}
{"Strand": "GCCTAGCACTTGCATCTGGGTATTTTTCTGTGCTAGGTCTTGATTCGCTTGACGCTGCTG", "log fluorescence [z-score]": -0.626}
{"Strand": "GCCTAGCACGACGGGTTCGACTTTCGGGACGTGCTAGTCTTGATTCGCTTGACGCTGCTG", "log fluorescence [z-score]": 1.72}
{"data": "Study 3", "target": "PABPC1L2, full length, GST fusion (mouse, UniProt A0ABA7IW68)", "method": "RNAcompete", "form": "RNA", "sample": "in vitro", "tested at": "20 nM", "notes": "7-mer, probes averaged, single round", "reference": "mean of 7-mers", "reading": "higher = stronger binding", "Target sequence (chain)": "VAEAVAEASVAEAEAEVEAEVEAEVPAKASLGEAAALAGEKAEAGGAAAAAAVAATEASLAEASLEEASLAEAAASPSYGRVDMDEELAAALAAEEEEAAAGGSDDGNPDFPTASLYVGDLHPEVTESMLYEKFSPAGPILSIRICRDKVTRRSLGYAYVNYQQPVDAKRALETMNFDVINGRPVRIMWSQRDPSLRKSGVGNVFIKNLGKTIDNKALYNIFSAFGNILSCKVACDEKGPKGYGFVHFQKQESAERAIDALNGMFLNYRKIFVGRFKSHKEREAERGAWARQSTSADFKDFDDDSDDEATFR"}
{"Strand": "AAUGAGC", "7-mer Z-score": -0.0826}
{"Strand": "CGUUCUU", "7-mer Z-score": -0.347}
{"Strand": "CAAUCAU", "7-mer Z-score": -0.0899}
{"Strand": "GUUGACC", "7-mer Z-score": 0.0189}
{"data": "Mixed results"}
{"Molecule": "PhoQ, residues 284 288 289 292 302 303 QWQEDG", "target": "PhoP, residues 12 14 15 18 19 LWHSL (Escherichia coli, UniProt P23836)", "assay": "Sort-seq, item: YFP reporter", "system": "E. coli", "setting": "PhoQ-PhoP variant library, together with: 10 µM Mg2+", "how to read": "reference: high Mg2+ state, higher = stronger signaling", "endpoint": "fold induction", "value": 16.1}
{"note": "Repeated from above (study 1):"}
{"Strand": "AAAGCGGTAATTTGCGGAGTGGGTGCAGATATCTAT", "fluorescence intensity": "73.8 a.u."}
{"Strand": "GGCAAAAGCTTACTTTCCGTGCCGAAGGTGTTGTTA", "fluorescence intensity": "71.8 a.u."}
{"Strand": "ACTAATGAATTGGTCCACGTTTAGCTTACTTCCCGA", "fluorescence intensity": "86.8 a.u."}
